{"data": "Measured values gathered from unrelated publications", "organism": "Candida albicans", "note": "Lines come from different studies, so protocols differ. ± gives the spread as reported."}
{"Structure (SMILES)": "CO[C@H]1[C@H](O[C@H]([C@H]2O[C@@H](n3ccc(=O)[nH]c3=O)[C@H](O)[C@@H]2O)[C@H](NCCCNC(=O)[C@@H](NC(=O)[C@@H](NC(=O)N[C@H](C(=O)O)C(C)C)[C@@H]2CCN=C(N)N2)[C@@H](OC(=O)CCCCCCCCCCCCN(O)C(=N)N)C(C)C)C(=O)O)O[C@H](CN)[C@H]1O", "test": "alamar blue", "test system": "18 M", "endpoint": "MIC50", "result": "> 35 µg/mL"}
{"Structure (SMILES)": "N=C(N)NCCC[C@H](NC(=O)CN)C(=O)N[C@@H](Cc1c[nH]c2ccccc12)C(=O)N[C@@H](CCCNC(=N)N)C(=O)N[C@@H](Cc1c[nH]c2ccccc12)C(=O)N[C@@H](Cc1c[nH]c2ccccc12)C(=O)N[C@@H](Cc1c[nH]c2ccccc12)C(=O)N[C@@H](CCCNC(=N)N)C(=O)N[C@@H](Cc1c[nH]c2ccccc12)C(=O)N[C@@H](CCCNC(=N)N)C(=O)N[C@@H](Cc1c[nH]c2ccccc12)C(N)=O", "test": "broth microdilution", "test system": "SP3931, RPMI 1640-MOPS", "setting": "48 h, 30 °C", "endpoint": "MIC", "result": "8 µM"}
{"Structure (SMILES)": "C#Cc1cccc(C=NNC(=O)c2ccc(Br)c(Br)c2)c1O", "test system": "A39", "setting": "unit not given, added: caspofungin", "how to read": "lower = more synergy", "endpoint": "FICI", "result": 0.5}
{"Structure (SMILES)": "N=C(N)NCCC[C@H](NC(=O)CN)C(=O)N[C@@H](Cc1c[nH]c2ccccc12)C(=O)N[C@@H](CCCNC(=N)N)C(=O)N[C@@H](Cc1c[nH]c2ccccc12)C(=O)N[C@@H](Cc1c[nH]c2ccccc12)C(=O)N[C@@H](Cc1c[nH]c2ccccc12)C(=O)N[C@@H](CCCNC(=N)N)C(=O)N[C@@H](Cc1c[nH]c2ccccc12)C(=O)N[C@@H](CCCNC(=N)N)C(=O)N[C@@H](Cc1ccccc1)C(N)=O", "test": "broth microdilution", "test system": "CGMCC 2.209, RPMI 1640-MOPS", "setting": "48 h, 30 °C, added: MgCl2 1 mM", "endpoint": "MIC", "result": "32 µM"}
{"Structure (SMILES)": "C#Cc1ccc(O)c(C=NNC(=O)c2cc(Br)cc(Br)c2O)c1", "test system": "A39", "setting": "unit not given, added: caspofungin", "how to read": "lower = more synergy", "endpoint": "FICI", "result": 1.25}
{"Structure (SMILES)": "OC(Cn1cncn1)(Cn1cncn1)c1ccc(F)cc1F", "test system": "2.209", "setting": "over 30 generations serial passaging", "how to read": "reference: initial MIC", "endpoint": "MIC increase", "result": "128 fold"}
{"Structure (SMILES)": "Cl.O[C@]12C=C(c3nccc4c3[nH]c3ccccc34)[C@@H]3CCN(CCCC/C=C\\CC1)C[C@@]31C[C@@H]3/C=C\\CCCCN3[C@H]12", "test": "growth", "test system": "ATCC 90028", "endpoint": "IC50", "result": "5.16 ± 0.27 µg/mL"}
{"Structure (SMILES)": "C#Cc1ccc(O)c(C=NNC(=O)c2ccc(Br)c(Br)c2)c1", "test system": "A39", "setting": "unit not given, added: caspofungin", "how to read": "lower = more synergy", "endpoint": "FICI", "result": 2}
{"Structure (SMILES)": "CC[C@@H](C)[C@H]1O[C@@H](c2c(O)c(-c3ccccc3)cn(OC)c2=O)[C@H](C)C[C@@H]1C", "test": "cell growth", "test system": "ATCC 90028", "endpoint": "IC50", "result": "> 20 µg/mL"}
{"Structure (SMILES)": "OC(Cn1cncn1)(Cn1cncn1)c1ccc(F)cc1F", "test": "broth microdilution", "test system": "58288, RPMI 1640-MOPS", "setting": "48 h, 30 °C", "endpoint": "MIC", "result": "16 µM"}
{"note": "Some of these lines once more:"}
{"Structure (SMILES)": "OC(Cn1cncn1)(Cn1cncn1)c1ccc(F)cc1F", "test system": "2.209", "setting": "over 30 generations serial passaging", "how to read": "reference: initial MIC", "endpoint": "MIC increase", "result": "128 fold"}
